Values quoted from earlier work as cited in several papers.
Each numbered part shows a few of the values that one paper quotes. pEC50, pIC50, pKd, pKi: −log10 of the molar value.

Sample 1 — cell line: MCF7; technique: microarray; tested at: concentration not given; relative to: DMSO
Structure (SMILES): OCCN1CCN(CCC=C2c3ccccc3Sc3ccc(C(F)(F)F)cc32)CC1
item	log2 fold change
ZNF292 mRNA	1.17
SLC7A11 mRNA	0.99
UPP1 mRNA	1.18
TES mRNA	1.17
SQLE mRNA	1.69

Sample 2 — organism: Cryptosporidium parvum; technique: high-throughput screen; tested at: concentration not given
Structure (SMILES)	activity
CCCCC/C=C\C/C=C\C/C=C\C/C=C\CCCC(=O)Nc1ccc(O)cc1	inactive
NC(=O)C[S+]([O-])C(c1ccccc1)c1ccccc1 (stereo not drawn)	inactive
O=C1CC[C@@]2(O)[C@H]3Cc4ccc(O)c5c4[C@@]2(CCN3CC2CC2)[C@H]1O5	inactive
CN1CC[C@@]23CCCC[C@@H]2[C@@H]1Cc1ccc(O)cc13.O=C(O)C(O)C(O)C(=O)O	inactive
C=C1C[C@@H]2[C@H](CC[C@]3(C)C(=O)CC[C@@H]23)[C@@]2(C)C=CC(=O)C=C12	inactive
C[C@H]1CCC[C@H](O)CCCCCc2cc(O)cc(O)c2C(=O)O1	inactive
Cl.O.Oc1ccc2c3c1O[C@H]1c4[nH]c5ccccc5c4C[C@@]4(O)[C@@H](C2)N(CC2CC2)CC[C@]314	inactive
NC(=O)OCCCc1ccccc1	inactive
Cc1ncc2n1-c1ccc(Cl)cc1C(c1ccccc1F)=NC2	inactive
C[C@]12CC[C@H](O)CC1=CC[C@@H]1[C@@H]2CC[C@@]2(C)[C@H]1CC[C@]2(C)O	inactive
COc1ccc2[nH]cc(CCN)c2c1	inactive
Cc1nnc2n1-c1ccc(Cl)cc1C(c1ccccc1)=NC2	inactive
c1ccc2c3c([nH]c2c1)CNCC3	inactive
CCCC(C)(COC(N)=O)COC(=O)NC(C)C (stereo not drawn)	inactive
Cl.Oc1cc2c(cc1O)[C@H]1c3ccccc3CN[C@@H]1CC2	inactive
CN1C(=O)COc2c(C(=O)NC3CN4CCC3CC4)cc(Cl)cc21 (stereo not drawn)	inactive
COc1cc(N)c(Cl)cc1C(=O)NC1CN2CCC1CC2.Cl (stereo not drawn)	inactive
C[N+]1(C)CCN(c2ccccc2)CC1	inactive
C[N+]1(CCC(C(N)=O)(c2ccccc2)c2ccccc2)CCCCC1	inactive
Cl.OC1CCCCC1N1CCC(c2ccccc2)CC1 (racemic)	inactive
C[C@]12Cc3c[nH]nc3C[C@@H]1CC[C@@H]1[C@@H]2CC[C@@]2(C)[C@H]1CC[C@]2(C)O	inactive
CN1CCN(C(=O)O[C@H]2c3nccnc3C(=O)N2c2ccc(Cl)cn2)CC1	inactive
Cc1ccc(-c2nc3ccc(C)cn3c2CC(=O)N(C)C)cc1	inactive
CNC1CC(c2ccc(Cl)c(Cl)c2)c2ccccc21 (stereo not drawn)	inactive
CC(C)CC(N(C)C)C1(c2ccc(Cl)cc2)CCC1 (stereo not drawn)	inactive

Other studies, line by line
SMILES	tested on	assay	test system	conditions	endpoint	value
Nc1ccc(O)c(C(=O)O)c1	bacteria			100 µM	reduction of polyP accumulation	50 to 60%
O=c1c2ccccc2[se]n1-c1ccccc1			water		solubility	< 1 mg/mL
CC(=O)c1c(O)c(C)c(O)c2c1OC1=CC(=O)C(C(C)=O)C(=O)C12C (stereo not drawn)		DMPD radical scavenging			IC50	33 mg/L
CNC1(c2ccccc2Cl)CCCCC1=O (stereo not drawn)	dopamine transporter				pIC50	< 5.00
O=C(c1cc(Cc2n[nH]c(=O)c3ccccc23)ccc1F)N1CCN(C(=O)C2CC2)CC1			patient, ovarian cancer, BRCA wild-type	dose not given, capsule monotherapy	response rate	24%
N.N.[Cl][Pt][Cl]		item: total platinum	mouse, plasma	intravenous, 2.6 mg Pt/kg	C0	6.53 µg Pt/mL
O=c1[nH]c2ccccc2n1C1CCN(CCCC(c2ccc(F)cc2)c2ccc(F)cc2)CC1	dopamine D2 receptor	binding			pKi	7.93
NC1CCCCC1N.O=C([O-])C(=O)[O-].[Pt+2] (stereo not drawn)		item: total platinum	mouse, plasma	intraperitoneal, 5 mg Pt/kg	AUC	23.2 µg·h/mL
CCOC(=O)[C@@H]1CSCC(=O)N[C@@H](CC)C(=O)N(C)[C@@H](C)C(=O)N[C@@H](CC(C)C)C(=O)N(C)[C@H](C)C(=O)N(CC(C)C)CC(=O)N[C@@H](CC(C)C)C(=O)N(C)[C@H](C)C(=O)N[C@@H](CC(C)C)C(=O)N1C					PAMPA log Pe	-6.6
CN1CCN(C(=O)C(C)(C)c2ccc(C(=O)Nc3cn4cc(-c5ccncc5)ccc4n3)cc2)CC1	DYRK1A	kinase activity			pIC50	6.59
COc1ccc2c(c1O)-c1c(O)c(OC)cc3c1[C@H](C2)[N+](C)(C)CC3		ABTS radical scavenging			IC50	27.6 mg/L
CCCC(=O)OCCCCCC(=O)N[C@H](C(=O)N1C[C@H](O)C[C@H]1C(=O)NCc1ccc(-c2scnc2C)cc1)C(C)(C)C		PAMPA			log permeability (Pe)	-5.19
NC(=O)c1ccc2nc(-c3ccc(C4(N)CCC4)cc3)c(-c3ccccc3)n2n1	CLK1	KINOMEscan			pKd	6.51
O=C1Nc2ccc(Cl)cc2C(c2ccccc2Cl)=NC1O (stereo not drawn)	dopamine transporter				pIC50	< 5.00
CNC(=N)NCCC[C@H](NC(=O)[C@H](CC(C)C)NC(=O)NNC(=O)[C@H](Cc1ccccc1)NC(=O)[C@H](CO)NC(=O)[C@H](CC(N)=O)NC(=O)[C@@H](Cc1cccnc1)NC(=O)[C@H](N)Cc1ccc(O)cc1)C(=O)NCC(N)=O	KISS1R human	cellular activity			pEC50	< 5.00
O=C(O)CCCc1ccc(N(CCCl)CCCl)cc1			water		solubility	< 1 mg/mL
CCOC(=O)[C@@H]1CSCC(=O)N[C@@H](CC)C(=O)N(C)[C@@H](C)C(=O)N[C@@H](CC(C)C)C(=O)N(C)[C@H](C)C(=O)N(CC)CC(=O)N[C@H](CC(C)C)C(=O)N(C)[C@H](C)C(=O)N[C@@H](CC(C)C)C(=O)N1C					PAMPA log Pe	-7.2
CNC(=N)NCCC[C@H](NC(=O)[C@H](CC(C)C)NC(=O)NNC(=O)[C@H](Cc1ccccc1)NC(=O)[C@H](CO)NC(=O)[C@H](CC(N)=O)NC(=O)[C@@H](Cc1ccncc1)NC(=O)[C@H](N)Cc1ccc(O)cc1)C(=O)N[C@@H](Cc1ccccc1)C(N)=O	KISS1R human				pKi	10.05
NCC(CC(=O)O)c1ccc(Cl)cc1 (stereo not drawn)	dopamine transporter				pIC50	< 5.00
N.N.[Cl][Pt][Cl]			mouse		maximum tolerated dose	~5 mg/kg
CC(C)(O/N=C(\C(=O)N[C@@H]1C(=O)N2C(C(=O)[O-])=C(C[N+]3(CCNC(=O)c4ccc(O)c(O)c4Cl)CCCC3)CS[C@H]12)c1csc(N)n1)C(=O)O	KPC-3	hydrolysis by enzyme, substrate			kcat	> 0.13 s⁻¹

Repeated from above (other studies, line by line):
SMILES	tested on	assay	test system	conditions	endpoint	value
CNC1(c2ccccc2Cl)CCCCC1=O (stereo not drawn)	dopamine transporter				pIC50	< 5.00
O=C(c1cc(Cc2n[nH]c(=O)c3ccccc23)ccc1F)N1CCN(C(=O)C2CC2)CC1			patient, ovarian cancer, BRCA wild-type	dose not given, capsule monotherapy	response rate	24%
N.N.[Cl][Pt][Cl]		item: total platinum	mouse, plasma	intravenous, 2.6 mg Pt/kg	C0	6.53 µg Pt/mL
O=c1[nH]c2ccccc2n1C1CCN(CCCC(c2ccc(F)cc2)c2ccc(F)cc2)CC1	dopamine D2 receptor	binding			pKi	7.93
NC1CCCCC1N.O=C([O-])C(=O)[O-].[Pt+2] (stereo not drawn)		item: total platinum	mouse, plasma	intraperitoneal, 5 mg Pt/kg	AUC	23.2 µg·h/mL
CCOC(=O)[C@@H]1CSCC(=O)N[C@@H](CC)C(=O)N(C)[C@@H](C)C(=O)N[C@@H](CC(C)C)C(=O)N(C)[C@H](C)C(=O)N(CC(C)C)CC(=O)N[C@@H](CC(C)C)C(=O)N(C)[C@H](C)C(=O)N[C@@H](CC(C)C)C(=O)N1C					PAMPA log Pe	-6.6
CN1CCN(C(=O)C(C)(C)c2ccc(C(=O)Nc3cn4cc(-c5ccncc5)ccc4n3)cc2)CC1	DYRK1A	kinase activity			pIC50	6.59
COc1ccc2c(c1O)-c1c(O)c(OC)cc3c1[C@H](C2)[N+](C)(C)CC3		ABTS radical scavenging			IC50	27.6 mg/L
